Published values from different studies.
Compare with care: the assays were run in different laboratories.
T1: RNA aptamer, tobramycin-binding; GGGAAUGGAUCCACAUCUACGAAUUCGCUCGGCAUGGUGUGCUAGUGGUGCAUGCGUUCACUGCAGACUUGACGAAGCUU
T2: RNA aptamer G51U; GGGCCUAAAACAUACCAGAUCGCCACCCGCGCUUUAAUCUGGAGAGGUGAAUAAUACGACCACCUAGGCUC
T3: RNA aptamer; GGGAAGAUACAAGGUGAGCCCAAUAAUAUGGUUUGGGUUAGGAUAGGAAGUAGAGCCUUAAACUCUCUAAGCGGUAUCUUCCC
T4: RNA aptamer; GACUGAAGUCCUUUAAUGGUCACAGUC
T5: RNA aptamer A50U; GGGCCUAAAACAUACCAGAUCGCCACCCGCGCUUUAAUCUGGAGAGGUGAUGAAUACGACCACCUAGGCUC
T6: RNA aptamer GAA^A junction to GUG^A; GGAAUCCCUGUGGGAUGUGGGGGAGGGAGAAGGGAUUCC
T7: RNA aptamer; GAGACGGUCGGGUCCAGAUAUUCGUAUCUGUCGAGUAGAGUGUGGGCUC
T8: RNA aptamer; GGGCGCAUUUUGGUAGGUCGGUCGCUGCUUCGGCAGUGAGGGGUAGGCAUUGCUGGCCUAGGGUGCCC
T9: RNA aptamer A13U; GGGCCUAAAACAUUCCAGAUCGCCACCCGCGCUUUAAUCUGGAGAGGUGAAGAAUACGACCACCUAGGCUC
T10: RNA aptamer, streptomycin-binding; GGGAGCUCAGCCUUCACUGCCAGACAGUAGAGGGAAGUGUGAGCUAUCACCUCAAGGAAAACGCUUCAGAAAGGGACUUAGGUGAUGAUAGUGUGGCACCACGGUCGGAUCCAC

SMILES | target | test | setting | endpoint | value
CNC1C(OC2OC(CO)C(N)C(O)C2O)OC2CC(N)C(OC3C(N)CC(NC(=O)CCOCCOCCOCCOCCOCCOCCOCCOCCOCCOCCOCCOCCNC(=O)CCCC[C@@H]4SC[C@@H]5NC(=O)N[C@@H]54)C(O)C3O)OC2C1O (stereo partly shown) | T1, RNA aptamer, tobramycin-binding | SPR | apparent | Kd | 570 nM
CN(C)[C@@H]1C(=O)C(C(N)=O)=C(O)[C@@]2(O)C(=O)C3=C(O)c4c(O)cccc4[C@@](C)(O)[C@H]3C[C@@H]12 | T2, RNA aptamer G51U | fluorescence titration | pH 7.5, 25 °C, MgCl2 10 mM | Kd | 2.93 nM
CC1=N/C(=C\c2ccc(OCc3ccc(B(O)O)cc3)c(F)c2)C(=O)N1C | T3, RNA aptamer | competition with tracer, competitor, fluorescence quenching | – | binding | binds weakly
NC[C@@H]1O[C@H](O[C@H]2[C@@H](O)[C@H](O[C@@H]3[C@@H](O)[C@H](N)C[C@H](N)[C@H]3O[C@H]3O[C@H](CN)[C@@H](O)[C@H](O)[C@H]3N)O[C@@H]2CO)[C@H](N)[C@@H](O)[C@@H]1O | T4, RNA aptamer | ITC | NaCl 200 mM | binding | binds weakly
CN(C)[C@@H]1C(=O)C(C(N)=O)=C(O)[C@@]2(O)C(=O)C3=C(O)c4c(O)cccc4[C@@](C)(O)[C@H]3[C@H](O)[C@@H]12 | T5, RNA aptamer A50U | fluorescence titration | pH 7.5, 25 °C, MgCl2 10 mM | Kd | 600 nM
CN1C=C/C(=C/C=C/c2sc3ccccc3[n+]2CC(=O)NCCOCCOCCOCCNC(=O)CCCC[C@@H]2SC[C@@H]3NC(=O)N[C@@H]32)c2ccccc21 | T6, RNA aptamer GAA^A junction to GUG^A | fluorescence titration | – | binding | binds weakly
CC1=N/C(=C\c2cc(Br)c(OC(=O)c3ccccc3SSc3ccccn3)c(Br)c2)C(=O)N1C | T7, RNA aptamer | competition with tracer, competitor, fluorescence quenching | – | binding | binds weakly
Nc1nc2c(ncn2[C@@H]2O[C@H](COP(=O)(O)OP(=O)(O)OP(=O)(O)O)[C@@H](O)[C@H]2O)c(=O)[nH]1 | T8, RNA aptamer | ITC | pH 6.5, 20 °C, KCl 50 mM | Kd | 70 nM
CN(C)C1C(O)=C(C#N)C(=O)C2(O)C(O)=C3C(=O)c4c(O)cccc4C(C)(O)C3CC12 (stereo not shown) | T9, RNA aptamer A13U | fluorescence titration | pH 7.5, 25 °C, MgCl2 10 mM | Kd | 1700 nM
CN[C@@H]1[C@H](O[C@H]2[C@H](O[C@H]3[C@H](O)[C@@H](O)[C@H](N=C(N)N)[C@@H](O)[C@@H]3N=C(N)N)O[C@@H](C)[C@]2(O)C=NNC(=O)CCOCCOCCOCCOCCNC(=O)CCCC[C@@H]2SC[C@@H]3NC(=O)N[C@@H]32)O[C@@H](CO)[C@H](O)[C@H]1O | T10, RNA aptamer, streptomycin-binding | SPR | apparent | Kd | 133 nM

Excerpt of the above:
SMILES | target | test | setting | endpoint | value
CN(C)[C@@H]1C(=O)C(C(N)=O)=C(O)[C@@]2(O)C(=O)C3=C(O)c4c(O)cccc4[C@@](C)(O)[C@H]3[C@H](O)[C@@H]12 | T5, RNA aptamer A50U | fluorescence titration | pH 7.5, 25 °C, MgCl2 10 mM | Kd | 600 nM
CC1=N/C(=C\c2ccc(OCc3ccc(B(O)O)cc3)c(F)c2)C(=O)N1C | T3, RNA aptamer | competition with tracer, competitor, fluorescence quenching | – | binding | binds weakly
